Measured values collected from several papers.
A part holds a random share of what one study measured. Substitutions count along the parent as printed.

Study 1
Target: Sal-like protein 4, full length isoform A (SALL4, Homo sapiens, UniProt Q9UJQ4, residues 1-1053)
UniProt Q9UJQ4, sequence (whole entry, looked up): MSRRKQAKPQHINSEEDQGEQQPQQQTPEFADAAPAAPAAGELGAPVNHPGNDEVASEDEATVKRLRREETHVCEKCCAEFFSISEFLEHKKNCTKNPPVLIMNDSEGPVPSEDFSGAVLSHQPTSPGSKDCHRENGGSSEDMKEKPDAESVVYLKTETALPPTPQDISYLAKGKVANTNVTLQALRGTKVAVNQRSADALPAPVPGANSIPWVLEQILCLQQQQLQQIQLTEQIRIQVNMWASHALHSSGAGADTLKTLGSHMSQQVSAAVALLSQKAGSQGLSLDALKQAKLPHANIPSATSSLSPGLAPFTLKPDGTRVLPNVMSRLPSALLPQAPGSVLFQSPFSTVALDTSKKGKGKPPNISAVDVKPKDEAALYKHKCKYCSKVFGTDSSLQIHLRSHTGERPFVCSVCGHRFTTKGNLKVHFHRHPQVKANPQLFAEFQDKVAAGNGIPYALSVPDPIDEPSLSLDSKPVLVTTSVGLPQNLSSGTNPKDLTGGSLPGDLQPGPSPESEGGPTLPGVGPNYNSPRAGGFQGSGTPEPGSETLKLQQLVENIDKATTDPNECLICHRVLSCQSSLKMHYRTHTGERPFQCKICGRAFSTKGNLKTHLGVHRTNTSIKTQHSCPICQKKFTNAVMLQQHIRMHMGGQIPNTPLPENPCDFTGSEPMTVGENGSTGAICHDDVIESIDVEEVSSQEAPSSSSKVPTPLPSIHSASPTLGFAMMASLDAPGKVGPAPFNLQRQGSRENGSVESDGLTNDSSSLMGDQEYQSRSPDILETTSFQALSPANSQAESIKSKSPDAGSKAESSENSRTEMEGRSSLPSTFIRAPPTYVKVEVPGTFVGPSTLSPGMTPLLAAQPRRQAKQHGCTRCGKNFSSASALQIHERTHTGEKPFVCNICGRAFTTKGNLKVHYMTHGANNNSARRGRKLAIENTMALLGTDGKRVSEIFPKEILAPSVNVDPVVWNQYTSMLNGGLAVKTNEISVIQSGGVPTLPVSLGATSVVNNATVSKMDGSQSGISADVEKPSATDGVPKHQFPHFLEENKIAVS
Technique: universal PBM
Molecule type: double-stranded DNA, one strand shown
Medium: in vitro
Tested at: 600 nM
Setting: 8-mer, flanks averaged, mean of replicates
Reading: higher = stronger binding
Strand	E-score
GAGTATGA	0.181
ATAGAAGA	0.208
CTCGCTAA	0.0222
CTCGGCTA	-0.208
CACTGGGG	-0.363
GTCTGTAA	0.102
CACTTCAG	-0.0445
AGAGAAAC	-0.0421
ATGCTTAA	0.271
CGTTCGAG	-0.135
CTTAAAAG	0.108
CATAGTGC	0.141
GCTTTGAA	0.194

Study 2
Target: ABI1, truncated, D143A, DHFR fusion (Arabidopsis thaliana)
Technique: DHFR PCA, deep sequencing
Medium: yeast
Setting: methotrexate growth selection, single substitutions
Added: (+)-ABA 17 µM
Baseline: wild-type fitted maximum
Reading: higher = stronger binding
Parent: PYL1, truncated, DHFR fusion (Arabidopsis thaliana); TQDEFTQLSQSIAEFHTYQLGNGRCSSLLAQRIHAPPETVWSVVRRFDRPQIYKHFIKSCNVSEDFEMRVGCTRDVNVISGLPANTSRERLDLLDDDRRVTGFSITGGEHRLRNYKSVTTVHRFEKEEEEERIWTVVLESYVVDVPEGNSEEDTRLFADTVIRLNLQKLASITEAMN
Change	relative binding score [%]
E125C	79.4
R132V	90.9
S140W	-0.328
R99D	-24
H122W	-6.82
V142Q	81.4
C72F	49.9
A35G	28.3
L156W	69.2
Y115P	-6.99
V118N	52
G21I	78.1
V40K	-36.1
L164E	30.1
I105Y	-35.9
R24T	79.4
E147C	70.8
R163Y	7.93
D3W	80.1
V62Y	35.4
F103Q	-21.5
G108H	-1.49
F66C	70.1
P83M	8.48

Study 3
Target: RNA binding protein fox-1 homolog 2, RRM domain, GST-SBP tag (RBFOX2, Homo sapiens, UniProt O43251-10, residues 100-194)
Technique: RNA Bind-n-Seq
Molecule type: RNA
Medium: in vitro
Tested at: 365 nM
Setting: natural RNA segment, single round, ends assumed
Baseline: no-protein control
Reading: higher = stronger binding
Shared flanks, not repeated: GGGAGUUCUACAGUCCGACGAUC … UGGAAUUCUCGGGUGCCAA
Target sequence (chain): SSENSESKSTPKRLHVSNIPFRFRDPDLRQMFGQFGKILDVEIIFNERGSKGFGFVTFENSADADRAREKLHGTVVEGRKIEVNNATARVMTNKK
Strand	RBNS enrichment (R)
GGGCCGAUACUACGCGCUCAAGAGCAUGACGGAGGCGGAGCAGCAGCAGCUCAUCGACGACCACUUCCUCUUCGACAAGCCCGUGUCGCCCCUGCUGCUGGCCUCGGGCA	5.22
AGACUGUUGUUUUUUUAGAGCUUGAUUGUGGGAGAAAAGCUUGUGUGAAAUUCCCUCUUCACCUCCCCACCCCCCAAAAAAUAAAAGGGGGCAUAAACUUUAUUCCACUG	0.663
CAGAGCCCAGGGCAUCCCAUGGGGGUGCUGCAGCCAGGAGGAGAGGAAAGGACAUGGGUAGCAAUUCUACCCAGAGCCUUCUCCUGCCUACAUUCCCUGGCCUGGCUCUC	0.292
AAACCCCUUCCAGAUCUGAUAUGGGACUAUUAAUUUUUAUGCUGUUAAUUGGUAUUCAUUCACAAUGCAGUUGAAGGGGGAAGGCUCCACUGCAUUCUUUGGCUAAGGCC	0.483
UCCUGCAGGACAGCUGCACUCAGGGAUACGCCCAACACCAUGGCCAGGGUCAAAGGUGAAGAAAGCAAGCUCACUGCCUGCACACGGAGAUUGUCUUUCUGCCACAGAAC	0.845
AUAAUUAUGAGUAAACCCGGUCCUUUCGAUGUUUAGAGUAAGCAGAGGCCCACAGUGGAGGCUUACCAAAGGUUGCAAUGAGGAAGAGGCCUCUCCCUCACUGUCAGCAC	0.402
CAGUCAGUACAAAUGGAAAAGGUCCCACACUGGAACUGGCCGGAACUGGAAGCAGGGGAGGUACGAGAGAACUUUUACCCUGUGGUCCUCAACCUGAGACCAAUAUGCCA	0.468
UCCAAGACACAGGGAAGGAAGGCAGAGGCUCCUCAGGGCCUUAUGGUAGGCCUAGCAGGUAGAGCUCAGGCCAGGGGUCUUUCCUCUGAGUCGGGAACAUGUCCAUUCUA	0.343
CUGUCAAGAGGGUGGGUCCCCAUCCCCGUGUGUGGAAAAGAGACAGUGUGGCUUGCUGCCAGGCUCAGGCCAGGUCUGGACAGCUCUCACUCUCCUCAAGCCAGGACUAC	0.196
UACAGGAGACAGUGGUUUUAUUCGGAUUGUCUUCUGUAAUAGGUUUCAAUAAAGCUGGAUGAACUUACGUUGUUGCUGCCUGUUUCCUGGCCUAUAAAGAGGGUUGUGUU	4.5
AAGAGACAGUGCUGUACAUUCUCAUAGAGAUAGAGAAGAUCUAAAAAGUUGAGACUACUCAAUCCAGUUAACAACAGCAGGAGCACUAGAGUUUGUUCAUUUAUUCUCUC	0.437
GUGGUCCUCAGCAGGGUUUUGACCUUGAUUGGCGGCUACUCUGGCAACCACUGCCCAUUCUUCUAAUCCCUCACAAUACGUGAUUCAGACCCUGAGCCUGGUCCACAGUG	0.247

Study 4
Target: CCNA2, cyclin fold, Cln2 fusion (human)
Technique: yeast growth competition, sequencing
Medium: yeast
Setting: strong parent motif
Baseline: not given
Reading: higher = stronger binding
Parent: E2F1 docking peptide (human); PPVKRRLDLETDH
Change	normalised enrichment score
R5A L7A	-0.143
K4Q	2.54
L7R	0.465
R6C	2.81
R5K	1.05
V3S	2.87
P2N	3.87
H13V	4.77
V3K	0.694
E10I	2.71
R6E	1.32
D12Q	4.85
T11C	4.19
H13A	4.02
R5E	0.439
E10R	3.34
D8G	2.17
H13D	4.48
T11D	3.58
L7H	-0.147
K4S	3.07
H13Q	4.23
L7W	0.785
K4T	-0.491
D12I	3.89

Study 5
Target: Histone acetyltransferase KAT6A, winged helix 1, GST fusion (KAT6A, Homo sapiens, UniProt Q92794, residues 1-85)
Technique: protein binding microarray
Molecule type: double-stranded DNA, one strand shown
Medium: in vitro
Tested at: not given
Setting: 8-mer, flanks averaged, mean of 2 arrays, mostly near background
Baseline: not given
Reading: higher = stronger binding
Residues (chain): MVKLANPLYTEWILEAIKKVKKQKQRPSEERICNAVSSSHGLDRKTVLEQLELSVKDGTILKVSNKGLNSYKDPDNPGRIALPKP
Strand	E-score
ATTTATAC	0.0239
CATGTCGC	0.164
GAGAGTAC	0.0328
AGGTCGTC	0.0311
GATAACCC	-0.0787
GACATCGA	-0.00652
CTCGTTAA	-0.125
GGTGGCCA	-0.215
CTGAGAGC	0.0187
CGGCAGGA	0.257
CGGCCGTA	0.445
GGTGATTA	-0.0122
CATTAATG	-0.00416
ACTCTCCT	-0.182
GCTATTAC	0.176
ACAGAACT	-0.133
AATAATAA	-0.141
CGGCCGCA	0.448
ATATTCCC	0.0597
ATAATGAC	0.0947
CTAGGATA	0.0351

Study 6
Target: RING finger protein unkempt homolog, zinc fingers 1-6, GST-SBP tag (UNK, Homo sapiens, UniProt Q9C0B0, residues 30-357)
Technique: RNA Bind-n-Seq
Molecule type: RNA
Medium: in vitro
Tested at: not given
Setting: RNA with constant flanks, human-mouse chimeric sites, ends assumed
Baseline: input RNA pool
Reading: higher = stronger binding
Shared flanks, not repeated: GGGAGUUCUACAGUCCGACGAUC … CAACAGAGGAUUGAGCAUCA
Target sequence (chain): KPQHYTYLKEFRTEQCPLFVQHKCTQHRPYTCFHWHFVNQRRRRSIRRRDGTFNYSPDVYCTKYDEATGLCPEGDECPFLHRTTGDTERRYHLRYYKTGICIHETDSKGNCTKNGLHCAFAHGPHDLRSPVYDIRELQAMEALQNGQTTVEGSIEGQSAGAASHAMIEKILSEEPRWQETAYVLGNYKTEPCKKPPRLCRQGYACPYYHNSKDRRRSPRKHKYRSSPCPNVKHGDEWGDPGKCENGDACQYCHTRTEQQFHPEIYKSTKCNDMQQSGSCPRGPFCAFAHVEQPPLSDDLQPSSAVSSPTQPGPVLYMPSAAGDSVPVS
Strand	bound/input enrichment [ratio]
AGAAUCUUGGGACUGUUUUACUUAAUUGGUCAUUGGUAGCUUAACAAACAUGGAGAUAAGAUUAGAAGUUUUGACAUCAACAGGUAUUAAGCAGAAAAAACCAUGGCCACGUGUCUCCUG	0.23
GUGACUGGUGUUAAGAUUUCCCCUCAGCAAAGAAGUGUAGCAGUGACCAUAAUUCCAUCUGUGGUGAAUGCCAAUCAGAUUGUGGAGCUGGUCCCAGACCUCAGUUUAGACAUGGGAACU	0.391
CCCACGCCUCCUCUCCCCCAGGCCCGAGAUAUAACCCACCAGUGCCUUUUGUCUUCCUGUCAGCUCUGUCAAUCACGCCUGUCCUCUCACGCCCACACCAAGUGCCCAAAGUGGGGAGGG	1.35
AAAUCGUGUGUGUCCAAUAUUGAAAGUGCUUUAUCUACACUCCAGUAUGUAAGCAGUAUAGUAGUUUCUUUAGAGAAUAGGUCAGCCAUUGUAAAGUAUAAUGCAAGCUUAGUCACUCCA	9.21
GGAAGUACAAUGAUGGAGAUUGAUGGUGAUAAAGGCAAACAAGGCGGGCCCACCUACUACAUAGACACCAAUGCCCUCCGCGUGCCCAGGGAGAACAUGGAGGCCAUCUCACCACUCAAG	0.236
GUGACUGGUGUUAAGAUUUCCCCUCAGAAAAGAACUGCAGUAGUCACCAUAAUUCCAUCUGUGGUGAGUGCCAGUCAGAUAAAAGAGCUGGUCCCAGACCUCAGUUUAGACAUGGGAACU	0.242
UCAAGGGCACGAGCAUCAGCCAUGCCUUUCCUUGACAUACAGAAAAAGCUGGGCAUCAGCCUGGACCGGCACUUUAUGUUCCUAAGCGCAGAACAGCCCUAUAAGAACGCCGCUCGGUGC	0.0934

A few entries again (study 4):
Change	normalised enrichment score
K4T	-0.491
L7H	-0.147
H13A	4.02
R6E	1.32
D8G	2.17
E10I	2.71
L7W	0.785
R5K	1.05
L7R	0.465
V3S	2.87
P2N	3.87
R6C	2.81
H13V	4.77
